Measured values of several laboratories.
A part holds a random share of what one study measured. Substitutions count along the parent as printed.

Block 1
Target: RNA binding protein fox-1 homolog 2, RRM domain, GST-SBP tag (RBFOX2, Homo sapiens, UniProt O43251-10, residues 100-194)
Method: RNA Bind-n-Seq
Form: RNA
Matrix: in vitro
Concentration: 365 nM
Notes: natural RNA segment, single round, ends assumed
Relative to: no-protein control
Reading: higher = stronger binding
Constant ends, left off below: GGGAGUUCUACAGUCCGACGAUC … UGGAAUUCUCGGGUGCCAA
Residues (chain): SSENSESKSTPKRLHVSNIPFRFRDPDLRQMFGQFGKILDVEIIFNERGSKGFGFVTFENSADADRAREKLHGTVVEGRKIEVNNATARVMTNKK
Under “RBNS enrichment (R)”, `CUCCCCUUGAGGCUGCUGCCUGCUUGGCCAGCCUCUGUCCAGAAAGGACCAGAGAAAGCCAGGCUGGAUCGUCACAUGCCGGGGAGCAAUGUGGAUGGCCUGGGGACUCC` is recorded as 0.372.
For `GUUGAAGUGGAAUCGUUUCAUCCCAGCCAUGGAGGCCACCAGCAGGAGUGUUCAUGGGGAUGUGGGCGAGGUGGGGCACUUUGAAGGAAUGGCGGUCUGCUGGUGCCCUC`, “RBNS enrichment (R)” read 0.508.
`AAGGAAUUUUUCCCUCCAAAGGCCCCCUGAAGUCCUAGUUGGCAUUGGCCUGGCACAUGCUUUAUGUUAGGCCUCCCGUUGGGAUGGCUGAGAAUCAUGAAAGACAGAUC`: “RBNS enrichment (R)” 0.327.
Under “RBNS enrichment (R)”, `GGAUAAUCUGAGCAGGUACAUUUCUGAUUCUGAUUGCUAUCAGCAAUGCCCCAAACUUUCUCAUAAGCACCUAAAACCCAAAGGUGGCAGCUUGUGAAGAUUGGGGACAC` is recorded as 0.341.
Under “RBNS enrichment (R)”, `UUCCUUGGACAGUAGCAACUAGUCAGAAGACCAUCCAAGAUAGAUGCAGCUGAUACAUUCUUUUCAGCUUCUUAUUGAUGAUUGUAGAUAGAAAAAUCCUUGUUUAUUCU` is recorded as 0.219.
For `UUGGAGAAUUAGAAUUCUCCAUCCUAUUAAACAGAAAGUAAAGCCAAAUAGCCUGGAGUUGUUUGUCCUACUUGUUCCAUAACCCCUAUGCUCAAGAUACUGAAGCUAUC`, “RBNS enrichment (R)” read 0.365.
`UUCAUUCCACUUGUGUAAGUUAAGUCUUGACUCUUUCAAAUGCAAAAAACCUAUUUUAUGCUUUGUUAAAAUUAUGGUGUCACUUAGAUUGACUUUAGUUGACUGCACUA` — result for “RBNS enrichment (R)”: 0.577.
Under “RBNS enrichment (R)”, `GAAGUUAACUCACUAUAUUCGGAAACUUACUGGCCUAGAGAAUUUUAUCCCAGGCAUUCUUAGAUGGAAAACAAUACUUUUGUUUUUUCUUCUAAAUUGAAGCUUGUUAA` is recorded as 0.442.
Under “RBNS enrichment (R)”, `GAGACAUCAUGAGAUGUCUUCCUUAAGCUGCACCAAGCCAUUGUCCUCCGUUGUUCCCAGGACUCAAGAGGAAUUUGUUUCUCUGCUGUCAGCUUCCUGUCUGGCUCAGU` is recorded as 0.211.
`CCAAUUACAUAGUCAGCUACAUAAUUGGCUUGCUUAUACAAAGAUAAGCAAGAGUCUUUCAUUGUCAGAAUAAGUAUUUUUCACGAUCUGUUUGAAGAGCAUCAUUGCUA` — result for “RBNS enrichment (R)”: 0.329.
Under “RBNS enrichment (R)”, `UGUUUUGUUUUGUUUUGUUCUGUUUUUUAACGUUCUUUCACCUUUCCUCUACUUUGGCUUUGCAAAUUUCAGUCUGUAGAGCCUGAAAUUAAAUUAUUUUAUAGUGCCUG` is recorded as 0.863.
Under “RBNS enrichment (R)”, `AGACAGUCCUUUCCCACCAUUCCUGCCUUUAAGCCAAAGAAACAAGCUGUGCAGGCAUGGUCCCUUAAGGCACAGUGGGAGCUGAGCUGGAAGGGGCCACGUGGAUGGGC` is recorded as 0.257.

Block 2
Target: Prothrombin, mature alpha-thrombin (F2, Homo sapiens, UniProt P00734)
Method: aptamer microarray, sandwich
Form: DNA with 2'F-ANA
Matrix: in vitro
Concentration: 200 nM
Notes: whole 15-mer aptamer, many near background
Together with: Cy3 exosite-II aptamer, 400 nM
Reading: higher = stronger binding
Strand: GGTTGGTGTGGTTGG
Under “mean fluorescence intensity”, `2'F-ANA at 3 6 9 10 13` is recorded as 482 a.u.
`2'F-ANA at 1 4 6 9 11 13 15` — result for “mean fluorescence intensity”: 74.2 a.u.
`2'F-ANA at 1 2 4 5 6 8 9 10 11` — result for “mean fluorescence intensity”: 52.2 a.u.
For `2'F-ANA at 2 3 4 5 6 9 11 12 13 15`, “mean fluorescence intensity” read 90.9 a.u.
Under “mean fluorescence intensity”, `2'F-ANA at 1 4 7 8 10 11 13` is recorded as 49.3 a.u.
`2'F-ANA at 1 2 5 8 10`: “mean fluorescence intensity” 72.1 a.u.
`2'F-ANA at 1 3 4 5 9 11 13 15` — result for “mean fluorescence intensity”: 58.6 a.u.
`2'F-ANA at 1 4 5 9 10 12`: “mean fluorescence intensity” 73.9 a.u.
For `2'F-ANA at 4 6 7 10 11 12 13`, “mean fluorescence intensity” read 82.8 a.u.
`2'F-ANA at 1 5 6 8 10 12 15` — result for “mean fluorescence intensity”: 45.4 a.u.
Under “mean fluorescence intensity”, `2'F-ANA at 1 2 7 8 9 13 14` is recorded as 58.1 a.u.
Under “mean fluorescence intensity”, `2'F-ANA at 2 3 4 5 6 7 9 10 12` is recorded as 59 a.u.
`2'F-ANA at 2 7 13 14 15`: “mean fluorescence intensity” 168 a.u.
`2'F-ANA at 1 4 5 7 8 12 14 15` — result for “mean fluorescence intensity”: 47.9 a.u.
Under “mean fluorescence intensity”, `2'F-ANA at 1 2 3 5 9 10 11 14 15` is recorded as 52 a.u.
`2'F-ANA at 3 5 6 9 11 14`: “mean fluorescence intensity” 52.9 a.u.
`2'F-ANA at 1 2 4 5 6 7 8 11 13 14 15` — result for “mean fluorescence intensity”: 60.5 a.u.
Under “mean fluorescence intensity”, `2'F-ANA at 1 2 4 5 9 10 11 15` is recorded as 70 a.u.
`2'F-ANA at 1 5 9 10 12 14`: “mean fluorescence intensity” 67.6 a.u.
For `2'F-ANA at 2 4 5 8 9 13`, “mean fluorescence intensity” read 54.6 a.u.
Under “mean fluorescence intensity”, `2'F-ANA at 1 3 4 10 12 13` is recorded as 67.1 a.u.
Under “mean fluorescence intensity”, `2'F-ANA at 2 4 9 11 12 13 14 15` is recorded as 92.5 a.u.
Under “mean fluorescence intensity”, `2'F-ANA at 2 3 5 7 10 11 12` is recorded as 61 a.u.
For `2'F-ANA at 1 3 5 6 7 9 10 13`, “mean fluorescence intensity” read 45 a.u.
For `2'F-ANA at 2 3 4 5 6 8 9 10 14 15`, “mean fluorescence intensity” read 47.2 a.u.

Block 3
Target: ABI1, truncated, D143A, DHFR fusion (Arabidopsis thaliana)
Method: DHFR PCA, deep sequencing
Matrix: yeast
Notes: methotrexate growth selection, single substitutions
Together with: (+)-ABA 0.032 µM
Relative to: wild-type fitted maximum
Reading: higher = stronger binding
Starting sequence: PYL1, truncated, DHFR fusion (Arabidopsis thaliana); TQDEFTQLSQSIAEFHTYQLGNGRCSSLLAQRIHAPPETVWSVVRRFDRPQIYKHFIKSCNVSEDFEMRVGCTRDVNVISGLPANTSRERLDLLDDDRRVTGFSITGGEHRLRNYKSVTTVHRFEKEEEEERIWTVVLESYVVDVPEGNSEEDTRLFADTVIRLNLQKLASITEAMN; partner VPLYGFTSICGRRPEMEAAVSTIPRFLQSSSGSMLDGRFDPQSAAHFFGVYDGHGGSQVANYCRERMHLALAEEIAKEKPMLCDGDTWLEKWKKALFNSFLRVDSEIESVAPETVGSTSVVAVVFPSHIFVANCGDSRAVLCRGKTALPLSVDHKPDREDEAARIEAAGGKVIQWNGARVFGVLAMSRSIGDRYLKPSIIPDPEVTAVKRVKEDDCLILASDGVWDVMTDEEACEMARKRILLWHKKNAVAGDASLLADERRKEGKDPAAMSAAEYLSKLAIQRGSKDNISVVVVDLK
For `V161W`, “relative binding score” read 68.8%.
`R98W` — result for “relative binding score”: 5.75%.
Under “relative binding score”, `R49D` is recorded as 1.45%.
`D65Q`: “relative binding score” 2.71%.
`R99V` — result for “relative binding score”: -4.42%.
`V70P`: “relative binding score” 29.4%.
`H16W` — result for “relative binding score”: -0.835%.
Under “relative binding score”, `H55W` is recorded as 44.5%.
For `V44S`, “relative binding score” read -3.37%.
Under “relative binding score”, `R69E` is recorded as 15.4%.
`G81Y`: “relative binding score” 1.89%.
`M176D` — result for “relative binding score”: 4.97%.
`N165T` — result for “relative binding score”: 7.49%.
`T39L`: “relative binding score” 46.1%.
`A175Q`: “relative binding score” 21.6%.

Block 4
Target: Fragile X messenger ribonucleoprotein 1, C-terminal low-complexity region (Fmr1, Mus musculus, UniProt P35922)
Method: RNA Bind-n-Seq
Form: RNA
Matrix: in vitro
Concentration: 200 nM
Notes: whole 134-nt RNA, ends assumed
Together with: 150 mM LiCl
Relative to: input library
Reading: higher = stronger binding
Each molecule: 7-deaza-guanosine replaces G
Constant ends, left off below: GGGAGUUCUACAGUCCGACGAUC … UGGAAUUCUCGGGUGUCAAGG
`GUCCUGUGCUACACAUCGUAUGUACCGAAUCGGAAAAAAGGGGAAAAAAGGAAAAAAGGAAAGUAUUAUGUUACGCCGUUCGGAUCUGCA` gave a log2 enrichment of 0.0986.
With `UGGACCCGGAGCUGAUGCAGAAGUUCAGCUGCCUGGGCACCACCGACAAGGACGUGCUCAUCUCCGAGUUCCAGAGGCUGCUCGGCUUCC` the log2 enrichment was -2.36.
`AAGUCCUGUGCUACACAUCGUAUGUACCGAAUCGGUUUUUGGAAAGGAAAAAAAGGAAAGUAUUAUGUUACGCCGUUCGGAUCUGCACUU` has a log2 enrichment of -2.
`CUCAAGUCCUGUGCUACACAUCGUAUGUACCGAAUCGGGGAAGGGAAGGGAAGGAAAGUAUUAUGUUACGCCGUUCGGAUCUGCACUUCC` gave a log2 enrichment of -0.813.
`GAAACUACCCGUGUGUAAAAAGAAGAUUGGCUUAAAAUGGCUACUGUGAUGGGAACAGUGUCUUAGGGAGAUGCAGCUUGGACUUGAGGU` gave a log2 enrichment of 1.18.
The log2 enrichment of `UGGGAGGCGGAUUUUGUUUAUUUUUUUAGCUCAUUUCCAGGGGUGGGAAUUUUUUUUUAAUAUGUGUCAUGAAUAAAGUUGUUUUUGAAA` is reported as 1.03.
`UGGCCCUGGUGGCAUACGGGGAGGAAGAGGUGGCCUCAUGGAUCGUGGUGGUCCCGGUGGAAUGUUCAGAGGUGGCCGUGGUGGAGACAG` has a log2 enrichment of 0.0652.

Block 5
Target: Interferon regulatory factor 5, full length, phosphomimetic (IRF5, Homo sapiens, UniProt Q13568-2, residues 1-514, S451D/S453D/S456D/S462D)
Method: protein-binding microarray
Form: double-stranded DNA, one strand shown
Matrix: in vitro
Concentration: 940 nM top
Notes: 60-bp whole probe
Together with: salmon DNA 0.4 mg/ml
Relative to: random background probes
Reading: higher = stronger binding
Constant ends, left off below: GCCTAGCAC … GTCTTGATTCGCTTGACGCTGCTG
For `GACGATTTCAGACTGGAAACGTGCTAG`, “fitted relative affinity” read -0.351 z-score.
For `GTAGGTTCCGGTTTCGGTTAGTGCTAG`, “fitted relative affinity” read 9.5 z-score.
`GACGGACTGGGTCTCGGGAGGTGCTAG` — result for “fitted relative affinity”: -0.06 z-score.
`GACGATTTCAGGCTGGAGACGTGCTAG`: “fitted relative affinity” -0.321 z-score.
For `TTAGAACCGAGTATCGATTAGTGCTAG`, “fitted relative affinity” read 4.06 z-score.
Under “fitted relative affinity”, `TCATCCTCCTCTCTCTTACTGTGCTAG` is recorded as 1.13 z-score.
`GAGGAACTGGGGTATCGAGACGTGCTA` — result for “fitted relative affinity”: 0.812 z-score.
For `GACGGTTTTGACACTGGGGACGTGCTA`, “fitted relative affinity” read 0.736 z-score.
Under “fitted relative affinity”, `GTAGAACTGAGTATCGATTAGTGCTAG` is recorded as 4.31 z-score.
Under “fitted relative affinity”, `CCTCCTCTCTCTTTCCACTTGTGCTAG` is recorded as 2.3 z-score.
For `TTAGGTTTCCTACTGCTTCAGTGCTAG`, “fitted relative affinity” read 0.847 z-score.
Under “fitted relative affinity”, `GACCGACTGGACTATCGGGACGTGCTA` is recorded as -0.257 z-score.
`TTAGGACTGGGTTCCGGTTAGTGCTAG` — result for “fitted relative affinity”: 0.346 z-score.
Under “fitted relative affinity”, `GACGATCTCAGTCTCGACACGTGCTAG` is recorded as 0.928 z-score.
`TTAGATTCCAGTTTCAATTAGTGCTAG`: “fitted relative affinity” 3.13 z-score.
`TTGGTTCTGATCCTTCCCCTCGTGCTA` — result for “fitted relative affinity”: 0.466 z-score.

Repeated from above (block 2):
Under “mean fluorescence intensity”, `2'F-ANA at 1 4 7 8 10 11 13` is recorded as 49.3 a.u.
`2'F-ANA at 1 2 5 8 10`: “mean fluorescence intensity” 72.1 a.u.
`2'F-ANA at 1 3 4 5 9 11 13 15` — result for “mean fluorescence intensity”: 58.6 a.u.
`2'F-ANA at 1 4 5 9 10 12`: “mean fluorescence intensity” 73.9 a.u.
For `2'F-ANA at 4 6 7 10 11 12 13`, “mean fluorescence intensity” read 82.8 a.u.
`2'F-ANA at 1 5 6 8 10 12 15` — result for “mean fluorescence intensity”: 45.4 a.u.
Under “mean fluorescence intensity”, `2'F-ANA at 1 2 7 8 9 13 14` is recorded as 58.1 a.u.
Under “mean fluorescence intensity”, `2'F-ANA at 2 3 4 5 6 7 9 10 12` is recorded as 59 a.u.
